Assay results from different studies.
Several values in a cell are separate wells, animals, samples, runs or records. ± marks the error that the study gave.

CCCCCCCCCCCCCCCC(=O)NCCO  ED50 (mechanical withdrawal threshold; mouse, paclitaxel neuropathic pain; oral): 40.9 mg/kg
CSCCNc1nc(SCCC(F)(F)F)nc2c1ncn2[C@@H]1O[C@H](COP(=O)(O)OP(=O)(O)C(Cl)(Cl)P(=O)(O)O)[C@@H](O)[C@H]1O  patients with IPA above threshold (platelet aggregation, light transmittance aggregometry; human, platelet-rich plasma; dose not given, 15 min, IPA above 90 %, with: TRAP 15 µM; relative to: patients): 0%
O=C1CCc2ccc(OCCCCN3CCN(c4cccc(Cl)c4Cl)CC3)cc2N1  stopping or switching (patients CYP2D6 NM; 3 months): 24%
Cn1cc([C@H]2C[C@H]3CSC(N)=N[C@@]3(c3ccc(F)cc3F)CO2)cn1  brain Aβ40 level (refers to: Aβx-40; wild-type mouse, brain; subcutaneous, 50 mg/kg, 3 h): 1.31 ng/g
C=CCn1c(=O)c2cnc(Nc3ccc(N4CCN(C)CC4)cc3)nc2n1-c1ccc2c(n1)[C@@](O)(CC)CC2  tumour growth inhibition (OVCAR-3 xenograft, NOD/SCID mice; oral, 80 mg/kg, day 49, once daily 7 d on, 7 d off x 3): 82.6%
CC(C)NCC(O)c1ccc(O)c(O)c1 (stereo not shown)  sarcomere length (ventricular cardiomyocytes, C57BL/6 mouse; dose not given, 0.852 s): 1.5 µm
N=C(N)NCCC[C@H](NC(=O)[C@H](CCCNC(=N)N)NC(=O)[C@H](CCCCN)NC(=O)[C@H](CCC(N)=O)NC(=O)[C@H](CCCCN)NC(=O)[C@H](Cc1ccc(O)cc1)NC(=O)[C@@H](N)CCCCN)C(=O)N[C@@H](CO)C(=O)N[C@@H](Cc1ccc(O)cc1)C(=O)N[C@@H](CCCCN)C(=O)O  median VAS change (dentin hypersensitivity patients aged ≥sample A years; 5 µg/tooth, day 36, unit not given; relative to: baseline): -11.5
NCC(=O)Nc1cncc(-c2nn3c(=O)cc(N4CCNCC4)nc3s2)c1  inhibition of platelet aggregation (ADP-induced platelet aggregation, light transmission aggregometry; human stable CAD patients on aspirin, platelets ex vivo; 0.05 mg/kg, 360 min post dose, with: 20 µM ADP; relative to: placebo difference): 4.63%
Cn1cc(Nc2nc(N)nc(-c3cccc(-n4ccc5cc(C6CC6)cc(F)c5c4=O)c3CO)n2)cn1  inhibition (CD63 upregulation, anti-IgE-induced; human, multiple ascending dose, whole blood basophils ex vivo; 150 mg twice daily, day 14, 6 h): 93.6%
Cn1nnc2c(C(N)=O)ncn2c1=O  T/C ratio (mouse subcutaneous GBM PDX sample C; subcutaneous, dose not given): 80%
CC(C)C[C@@H](NC(=O)[C@H](C)NC(=O)CNC(=O)[C@@H](NC=O)C(C)C)C(=O)N[C@@H](C)C(=O)N[C@@H](C(=O)N[C@H](C(=O)N[C@@H](C(=O)N[C@@H](Cc1c[nH]c2ccccc12)C(=O)N[C@H](CC(C)C)C(=O)N[C@@H](Cc1ccc2cc[nH]c2c1)C(=O)N[C@H](CC(C)C)C(=O)N[C@@H](Cc1c[nH]c2ccccc12)C(=O)N[C@H](CC(C)C)C(=O)N[C@@H](Cc1c[nH]c2ccccc12)C(=O)NCCO)C(C)C)C(C)C)C(C)C  EC50 (H+/Na+ transport, pyranine pH-gradient; EYPC/EYPG LUVs 19:1): 4.07 ± 0.96 nM
C[C@@H](NC(=O)N1C(=O)[C@H](Cc2ccnc(N)c2)[C@H]1C(=O)O)C1CCCCC1  ACT Emax (human; iv infusion, 2.25 mg/kg/h, 24 h): 125 s
C=CCn1c(=O)c2cnc(Nc3ccc(N4CCN(C)CC4)cc3)nc2n1-c1cccc(C(C)(C)O)n1  progressive disease (RECIST; HNSCC patients; dose not given, single agent first week, then cisplatin/docetaxel): 21%
C[C@H]1C[C@H]2CSC(N)=N[C@@]2(c2nc(NC(=O)c3ccc(OC(F)F)cn3)cs2)CO1  percent change from baseline (refers to: Aβ1-40; healthy adults, plasma; 160 mg single dose, 4 h post-dose; relative to: placebo): -61.6%
N#Cc1ccn2c(-c3ccncc3)c(-c3ccc(F)cc3)nc2c1  log2 fold change (kinase binding, competitor, MIB/MS competition, refers to: SSK2; Candida albicans cell lysate; 10 µM; relative to: DMSO): 0.245
CC[C@H](C)[C@H](NC(=O)[C@H](Cc1ccccc1)NC(=O)[C@H](CC(=O)O)NC(=O)[C@H](CCCNC(=N)N)NC(=O)[C@H](C)NC(=O)[C@H](C)NC(=O)[C@H](CC(C)C)NC(=O)[C@H](CC(N)=O)NC(=O)[C@H](CC(=O)O)NC(=O)[C@H](CC(C)C)NC(=O)[C@@H](NC(=O)[C@@H](NC(=O)[C@H](CC(N)=O)NC(=O)[C@H](CCSC)NC(=O)[C@H](CCC(=O)O)NC(=O)[C@H](CC(=O)O)NC(=O)[C@H](CO)NC(=O)[C@H](Cc1ccccc1)NC(=O)[C@H](CO)NC(=O)CNC(=O)[C@H](CC(=O)O)NC(=O)CNC(=O)[C@@H](N)Cc1c[nH]cn1)[C@@H](C)O)[C@@H](C)CC)C(=O)N[C@@H](CC(N)=O)C(=O)N[C@@H](Cc1c[nH]c2ccccc12)C(=O)N[C@@H](CC(C)C)C(=O)N[C@H](C(=O)N[C@@H](CCC(N)=O)C(=O)N[C@H](C(=O)N[C@@H](CCCCN)C(=O)N[C@H](C(=O)N[C@H](C(=O)N[C@@H](CC(=O)O)C(=O)O)[C@@H](C)O)[C@@H](C)CC)[C@@H](C)O)[C@@H](C)CC  small intestine weight increase (mouse; twice daily, dose not given, 2 weeks; relative to: vehicle): 35%
COc1ccccc1[C@H](Cn1c(=O)n(C(C)(C)C(=O)O)c(=O)c2c(C)c(-c3ncco3)sc21)OC1CCOCC1  fractional hepatic DNL ([1-13C]acetate infusion, isotopomer analysis; overweight or obese healthy men, plasma VLDL-TG palmitate; oral, 50 mg single dose, 6 h post-dose, with: oral fructose): 6.62 % new palmitate
O=C(O)CNC(=O)Cc1ccccc1  sarcomere length (ventricular cardiomyocytes, C57BL/6 mouse; dose not given, 0.336 s): 1.72 µm
CN(C)C(=O)c1cc2cnc(Nc3ccc(N4CCNCC4)cn3)nc2n1C1CCCC1  GSEA enrichment score (RNA sequencing, refers to: HALLMARK_INTERFERON_GAMMA_RESPONSE; MB002 tumour; concentration not given; relative to: vehicle, direction not given): -0.22
[Cl-].[Cl-].[Pt+2].[Ru+2].c1ccc(-c2nc3cc4ccccc4cc3nc2-c2ccccn2)nc1.c1cnc2c(c1)ccc1cccnc12.c1cnc2c(c1)ccc1cccnc12  negative activation entropy (chloride substitution, UV-vis kinetics; aqueous buffer; concentration not given, pH 7.2, second substitution step, with: L-methionine): 168 ± 11 J/(mol·K)
N#Cc1ccc(C(c2ccc(C#N)cc2)n2cncn2)cc1  estradiol concentration (ELISA; human patients, tumour homogenate; 15 mg daily): 21.5 ± 8.02 pg/mL
N#Cc1ccc2c(c1)[C@H]1CCCN(C(=O)c3ccc4[nH]cnc4c3)[C@H]1C2  body weight change from baseline (human clinical trial; oral, 240 mg once daily, 28 d; relative to: placebo): -1.02 kg
CCO[C@H]1CCN(Cc2c(OC)cc(C)c3[nH]ccc23)[C@H](c2ccc(C(=O)O)cc2)C1  PNH RBC clone size (PNH patients, blood; oral, 50 mg then 200 mg, week 8, mean absolute change; relative to: baseline): 39.9%
O[C@H]1CCCN[C@@H]1CCCn1cnc2c(Cl)c(Cl)ccc21  AUC(0-tau) (ELISA, refers to: Pro-C6; healthy human volunteers, serum; intraduodenal, 50 mg twice daily, day 14, multiple ascending dose): 93.3 ng·h/mL
OC[C@H]1O[C@@H](c2ccc(F)c(Cc3cc4ccccc4s3)c2)[C@H](O)[C@@H](O)[C@@H]1O  time glucose at most 70 mg/dL (continuous glucose monitoring; Japanese type 1 diabetes patients; 50 mg/day, day 1; relative to: baseline): 4.82 ± 12.5 % change
COc1cc2cc(-c3ccc(CC(=O)Nc4cc(C(C)(C)C(F)(F)F)no4)cn3)cnc2cc1OC  progressive disease as best response (RECIST v1.1; RET-altered advanced solid tumour patients; oral, 75 mg once daily, phase I): 23%
NC(=O)c1cnc2[nH]ccc2c1N[C@@H]1[C@@H]2CC3C[C@H]1C[C@@](O)(C3)C2  change from baseline (flow cytometry, refers to: CD4+ effector memory T cells; Japanese healthy subjects, peripheral blood; oral, 30 mg twice daily, day 4): 0.08%
CN(C(=O)n1cnc(-c2ccc[n+]([O-])c2)c1)C1CCCCC1  peak anandamide level (mouse, brain; oral, 10 mg/kg, 4 h): 114 ± 8.8 pmol/g
C[C@@H](O)CCOC(=O)C[C@@H](C)O  metabolite level (refers to: C8:1 acylcarnitine; human, plasma; 60 min, log2-transformed values): -1.91 ± 0.9 µmol/L
C[C@H]1O[C@@H](O[C@H]2CC[C@@]3(C)[C@@H](CC[C@]4(C)[C@@H]3C=C[C@]35OC[C@@]6(CCC(C)(C)C[C@H]63)[C@@H](O)C[C@]54C)[C@]2(C)CO)[C@H](O)[C@@H](O[C@@H]2O[C@H](CO)[C@@H](O)[C@H](O)[C@H]2O)[C@H]1O  ALT activity (chronic-plus-binge ethanol mice, plasma; oral, 15 mg/kg/day for 7 d, 168 h): 24.2 U/L and 22.3 U/L and 25.1 U/L and 18.5 U/L and 16.4 U/L
O=C1O[C@H]([C@@H](O)CO)C(O)=C1O  inhibition (hydroxyl radical scavenging; 80 µM): 36.5%
CS(=O)(=O)CCNCc1ccc(-c2ccc3ncnc(Nc4ccc(OCc5cccc(F)c5)c(Cl)c4)c3c2)o1  ED50 (tumour growth; BT-474 orthotopic xenograft, mouse; oral, daily for 28 days): < 25 mg/kg
C[C@H](Oc1ccc(Br)cc1-c1ccon1)C(=O)O  peak amplitude change (muscle velocity recovery cycles; human, tibialis anterior muscle; 1200 mg single dose, 3.5 h post-dose, frequency ramp, last response at 15 Hz; relative to: placebo): 6.98%
COc1ccc(-c2cncc(N[C@@H](C)c3cccc(NC(=O)c4cncc(C)c4)c3)n2)cc1OC  fold change (refers to: rno-miR-212-3p; rat SU5416/hypoxia model, lung; dose not given; relative to: SU5416/hypoxia vehicle): 1.51
COC(=O)c1c(C)[nH]c(C)c1C(=O)c1ccccc1Cc1ccccc1  serotonin-induced response (high-content microscopy; DRG neurons, rat; dose not given, unit not given, with: DAMGO 0.1; relative to: no DAMGO): 0.784 and 0.703 and 0.802 and 0.688
Cn1cc(Nc2nccc(-c3ccc4c(c3)CN(C3COC3)CC[C@H]4NC(=O)c3cn(C(C)(C)C)nn3)n2)cn1  pathway activation z-score (refers to: Aryl Hydrocarbon Receptor Signaling; splenic B cells, mouse; in vivo, 30 mg/kg, IgD-activated B cells; relative to: vehicle, positive = activation): -0.243
Cc1n[nH]c2ccc(-c3cc(OC[C@@H](N)Cc4ccccc4)cnc3-c3ccoc3)cc12  log2 fold change (kinase binding, competitor, MIB/MS competition, refers to: HRK1; Candida albicans cell lysate; 1 µM; relative to: DMSO): 0.0301
NC/C(=C\F)COc1cccc(Cn2c(=S)[nH]c(=O)c3[nH]cnc32)c1  fibrosis area (mouse, unilateral ureteral obstruction, left kidney (obstructed); dose not given): 7.81% and 5.77% and 8.55% and 3.25% and 7.64% and 5.55%
CC(C)[C@H](C(=O)Nc1ccc(C(=O)NO)cc1)c1ccccc1  tumour volume (volumetric MRI; human, right vagal schwannoma; dose not given, day 835): 9.3 cm3
O=C1N(Cc2ccccc2Cl)c2ccccc2C12NN=C(c1ccccc1)S2 (stereo not shown)  T/C (PC-3 xenograft, mouse; intravenous, 676 mg/kg total, subcutaneous xenograft; relative to: vehicle): > 100%
CNS(=O)(=O)Nc1nccc(Cc2c(C)c3ccc(Oc4ncccn4)cc3oc2=O)c1F  ED50 (mouse HCT-116 KRAS G13D xenograft; oral, once daily): 0.056 mg/kg
OC(CCN1CCCCC1)(c1ccccc1)C1CC2C=CC1C2 (stereo not shown)  EEG theta power, O1 Pz (resting-state EEG; healthy elderly humans; oral, 2 mg, eyes open, LS mean): 5 µV²
c1ccc(-c2n[nH]cc2-c2ccnc3ccccc23)nc1  log2 fold change (kinase binding, competitor, MIB/MS competition, refers to: YPK1; Candida albicans cell lysate; 1 µM; relative to: DMSO): 1.3
Cc1noc(C)c1-c1cc(C(O)(c2ccccn2)c2ccccn2)c2nc(C3CC3)[nH]c2c1  maximum induction (refers to: HEXIM1 expression; human, peripheral blood; 4 mg, day 1, 1599 study): 61.4%
CCN(Cc1nc2c(N)nc3cc(-c4cc[nH]n4)ccc3c2[nH]1)C(C)=O  fold change (immunohistochemistry, refers to: TAMs; human, injected tumour lesions; 2000 µg; relative to: baseline): 1.7
COc1nnc2ccc(N3CCC(c4ccc(OCCN5CCN(C)C(=O)[C@H]5C)cc4)CC3)nn12  time above HEXIM1 threshold (human patients; 15 mg twice daily, 2-fold above baseline): 3.77 h

Some of these lines once more:
Cn1cc(Nc2nc(N)nc(-c3cccc(-n4ccc5cc(C6CC6)cc(F)c5c4=O)c3CO)n2)cn1  inhibition (CD63 upregulation, anti-IgE-induced; human, multiple ascending dose, whole blood basophils ex vivo; 150 mg twice daily, day 14, 6 h): 93.6%
C[C@H]1O[C@@H](O[C@H]2CC[C@@]3(C)[C@@H](CC[C@]4(C)[C@@H]3C=C[C@]35OC[C@@]6(CCC(C)(C)C[C@H]63)[C@@H](O)C[C@]54C)[C@]2(C)CO)[C@H](O)[C@@H](O[C@@H]2O[C@H](CO)[C@@H](O)[C@H](O)[C@H]2O)[C@H]1O  ALT activity (chronic-plus-binge ethanol mice, plasma; oral, 15 mg/kg/day for 7 d, 168 h): 24.2 U/L and 22.3 U/L and 25.1 U/L and 18.5 U/L and 16.4 U/L
